# Experimental data gathered from unrelated publications.
# A part holds a random share of what one study measured. Several values in a cell are separate wells, animals, samples, runs or records.

# Block 1
# SMILES: c1ccc(Oc2ccc(Nc3c4c(nc5ccccc35)CCC4)cc2)cc1
cell line,assay,setting,cytotoxicity
HEK293,resazurin,"16.66 µM, 10% serum",74% and 79%
PMA-differentiated THP-1 macrophages,,"20 µM, 64 h",53% and 47%
RAW264.7,resazurin,0.32 µM,-8% and 10%
HepG2,resazurin,"66.66 µM, 48 h",83% and 82%
PMA-differentiated THP-1 macrophages,,"40 µM, 64 h",79% and 73%
J774.1,resazurin,"0.00332 µM, 64 h",-6% and -3%

# Block 2
# Target: 5-hydroxytryptamine receptor 1A (HTR1A, Homo sapiens, UniProt P08908)
# Chain of UniProt P08908 (whole entry, looked up): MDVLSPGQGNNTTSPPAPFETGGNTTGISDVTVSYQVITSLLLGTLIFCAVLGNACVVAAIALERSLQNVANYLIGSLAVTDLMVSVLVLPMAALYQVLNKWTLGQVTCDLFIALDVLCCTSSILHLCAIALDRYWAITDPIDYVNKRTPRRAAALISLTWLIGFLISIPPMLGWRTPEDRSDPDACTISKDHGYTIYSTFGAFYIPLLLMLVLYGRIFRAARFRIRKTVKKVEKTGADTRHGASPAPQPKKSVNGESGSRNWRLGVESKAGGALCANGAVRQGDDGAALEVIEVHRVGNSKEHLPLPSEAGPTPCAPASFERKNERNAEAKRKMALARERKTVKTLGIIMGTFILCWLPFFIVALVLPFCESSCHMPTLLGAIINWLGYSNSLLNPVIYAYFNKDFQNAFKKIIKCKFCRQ
# Read-out: ligand displacement
# Technique: radioligand
# Concentration: 10 µM
Structure (SMILES),inhibition
CCC(=O)N[C@@H]1CC[C@H](C(=O)N(C)c2ccc(-c3nc4ccccc4o3)cc2)C1,8.28%
COCCOc1nc(-c2ccc(Cl)nc2)nc2c1CN(C(=O)c1ncn3ccccc13)CC2,-0.41%
COc1cc(-c2cn(C3CCc4c(F)cccc4N(CC(F)(F)F)C3=O)nn2)ccc1-n1cnc(C)c1 (stereo not shown),19.4%
Cc1cc(-n2nc(Cc3cc(F)cc(C(F)(F)F)c3)nc2C)ccc1C(N)=O,-4.42%
CC(=O)N1CCC(c2ccc(C(=O)NC3=NCCN3)cc2C(F)(F)F)CC1,-15.7%
Cn1nc(C(F)(F)F)cc1-c1cnc(N2CCc3cc(S(=O)(=O)Nc4c(F)cc(Cl)cc4F)cc(N4CCCC4=O)c32)nc1,-11.5%
CO[C@H]1CC[C@H](CNc2ccc(S(=O)(=O)NC(=O)c3ccc(N4CCN(CC5=C(c6ccc(Cl)cc6)CC(C)(C)CC5)CC4)cc3Oc3cnc4[nH]ccc4c3)cc2[N+](=O)[O-])CC1,-7.27%
CCC(=NO)C(C)=Cc1ccc(F)c(C)c1,1.12%
C[C@@H]1CN(c2cc(-c3n[nH]c4ccc(OC5(C)CC5)cc34)ncn2)C[C@H](C)O1,4.44%
Nc1cnc(N2CCc3cc(S(=O)(=O)Nc4c(F)cc(Cl)cc4F)cc(N4CCCC4=O)c32)nc1,4.45%
CC(C)(O)c1cncc(-c2nc3ccc(F)cc3n2C2CC2)c1,1.22%
C[C@H](c1ccc(F)cc1)N(Cc1cccc(C(=O)O)c1)C(=O)c1cnc2ccccc2c1,-16.8%
CNC(=O)Nc1ccc2c(c1)CC[C@]21OC(=O)N(CC(=O)N(Cc2ccc(F)cc2)[C@@H](C)C(F)(F)F)C1=O,6.87%
CNC(=O)c1ccc(Nc2ncc(C(F)(F)F)c(NCc3nccnc3N(C)S(C)(=O)=O)n2)cc1,-9.76%
CS(=O)(=O)NCC[C@H](NC(=O)c1cncc2c1cnn2-c1ccc(F)cc1)c1ccnc(S(C)(=O)=O)c1,13.3%
O=C1CCc2cc(Nc3cc(OC4CCOCC4)c([N+](=O)[O-])cc3Cl)ccc2N1,-4.09%
C[C@H](c1cccc(C#N)c1)n1cc(Cl)cc(C(N)=O)c1=N,0.16%
Cc1nc(C2CCN(C(=O)c3ccc(OC(F)(F)F)cc3N)CC2)c2ncc(N3CCN(C)CC3)cc2n1,-3.88%

# Block 3
# Cell line: UACC-903 melanoma
SMILES,IC50
OCCN1CCN(CCC=C2c3ccccc3Sc3ccc(C(F)(F)F)cc32)CC1,7.1 µM
CN1CCN(CCCN2c3ccccc3Sc3ccc(C(F)(F)F)cc32)CC1,10.2 µM
CN(C)CCCN1c2ccccc2Sc2ccc(C(F)(F)F)cc21,12.4 µM
Fc1ccc([C@@H]2CCNC[C@H]2COc2ccc3c(c2)OCO3)cc1,6.2 µM
CN1CCc2c(c3ccccc3n2Cc2ccccc2)C1,42.1 µM
CCOC(=O)C1=C(COCCN)NC(C)=C(C(=O)OC)C1c1ccccc1Cl (stereo not shown),11.9 µM

# Block 4
# Target: DNA polymerase theta, ATPase domain (POLQ, Homo sapiens, UniProt O75417)
# Chain of UniProt O75417 (whole entry, unmodified, looked up): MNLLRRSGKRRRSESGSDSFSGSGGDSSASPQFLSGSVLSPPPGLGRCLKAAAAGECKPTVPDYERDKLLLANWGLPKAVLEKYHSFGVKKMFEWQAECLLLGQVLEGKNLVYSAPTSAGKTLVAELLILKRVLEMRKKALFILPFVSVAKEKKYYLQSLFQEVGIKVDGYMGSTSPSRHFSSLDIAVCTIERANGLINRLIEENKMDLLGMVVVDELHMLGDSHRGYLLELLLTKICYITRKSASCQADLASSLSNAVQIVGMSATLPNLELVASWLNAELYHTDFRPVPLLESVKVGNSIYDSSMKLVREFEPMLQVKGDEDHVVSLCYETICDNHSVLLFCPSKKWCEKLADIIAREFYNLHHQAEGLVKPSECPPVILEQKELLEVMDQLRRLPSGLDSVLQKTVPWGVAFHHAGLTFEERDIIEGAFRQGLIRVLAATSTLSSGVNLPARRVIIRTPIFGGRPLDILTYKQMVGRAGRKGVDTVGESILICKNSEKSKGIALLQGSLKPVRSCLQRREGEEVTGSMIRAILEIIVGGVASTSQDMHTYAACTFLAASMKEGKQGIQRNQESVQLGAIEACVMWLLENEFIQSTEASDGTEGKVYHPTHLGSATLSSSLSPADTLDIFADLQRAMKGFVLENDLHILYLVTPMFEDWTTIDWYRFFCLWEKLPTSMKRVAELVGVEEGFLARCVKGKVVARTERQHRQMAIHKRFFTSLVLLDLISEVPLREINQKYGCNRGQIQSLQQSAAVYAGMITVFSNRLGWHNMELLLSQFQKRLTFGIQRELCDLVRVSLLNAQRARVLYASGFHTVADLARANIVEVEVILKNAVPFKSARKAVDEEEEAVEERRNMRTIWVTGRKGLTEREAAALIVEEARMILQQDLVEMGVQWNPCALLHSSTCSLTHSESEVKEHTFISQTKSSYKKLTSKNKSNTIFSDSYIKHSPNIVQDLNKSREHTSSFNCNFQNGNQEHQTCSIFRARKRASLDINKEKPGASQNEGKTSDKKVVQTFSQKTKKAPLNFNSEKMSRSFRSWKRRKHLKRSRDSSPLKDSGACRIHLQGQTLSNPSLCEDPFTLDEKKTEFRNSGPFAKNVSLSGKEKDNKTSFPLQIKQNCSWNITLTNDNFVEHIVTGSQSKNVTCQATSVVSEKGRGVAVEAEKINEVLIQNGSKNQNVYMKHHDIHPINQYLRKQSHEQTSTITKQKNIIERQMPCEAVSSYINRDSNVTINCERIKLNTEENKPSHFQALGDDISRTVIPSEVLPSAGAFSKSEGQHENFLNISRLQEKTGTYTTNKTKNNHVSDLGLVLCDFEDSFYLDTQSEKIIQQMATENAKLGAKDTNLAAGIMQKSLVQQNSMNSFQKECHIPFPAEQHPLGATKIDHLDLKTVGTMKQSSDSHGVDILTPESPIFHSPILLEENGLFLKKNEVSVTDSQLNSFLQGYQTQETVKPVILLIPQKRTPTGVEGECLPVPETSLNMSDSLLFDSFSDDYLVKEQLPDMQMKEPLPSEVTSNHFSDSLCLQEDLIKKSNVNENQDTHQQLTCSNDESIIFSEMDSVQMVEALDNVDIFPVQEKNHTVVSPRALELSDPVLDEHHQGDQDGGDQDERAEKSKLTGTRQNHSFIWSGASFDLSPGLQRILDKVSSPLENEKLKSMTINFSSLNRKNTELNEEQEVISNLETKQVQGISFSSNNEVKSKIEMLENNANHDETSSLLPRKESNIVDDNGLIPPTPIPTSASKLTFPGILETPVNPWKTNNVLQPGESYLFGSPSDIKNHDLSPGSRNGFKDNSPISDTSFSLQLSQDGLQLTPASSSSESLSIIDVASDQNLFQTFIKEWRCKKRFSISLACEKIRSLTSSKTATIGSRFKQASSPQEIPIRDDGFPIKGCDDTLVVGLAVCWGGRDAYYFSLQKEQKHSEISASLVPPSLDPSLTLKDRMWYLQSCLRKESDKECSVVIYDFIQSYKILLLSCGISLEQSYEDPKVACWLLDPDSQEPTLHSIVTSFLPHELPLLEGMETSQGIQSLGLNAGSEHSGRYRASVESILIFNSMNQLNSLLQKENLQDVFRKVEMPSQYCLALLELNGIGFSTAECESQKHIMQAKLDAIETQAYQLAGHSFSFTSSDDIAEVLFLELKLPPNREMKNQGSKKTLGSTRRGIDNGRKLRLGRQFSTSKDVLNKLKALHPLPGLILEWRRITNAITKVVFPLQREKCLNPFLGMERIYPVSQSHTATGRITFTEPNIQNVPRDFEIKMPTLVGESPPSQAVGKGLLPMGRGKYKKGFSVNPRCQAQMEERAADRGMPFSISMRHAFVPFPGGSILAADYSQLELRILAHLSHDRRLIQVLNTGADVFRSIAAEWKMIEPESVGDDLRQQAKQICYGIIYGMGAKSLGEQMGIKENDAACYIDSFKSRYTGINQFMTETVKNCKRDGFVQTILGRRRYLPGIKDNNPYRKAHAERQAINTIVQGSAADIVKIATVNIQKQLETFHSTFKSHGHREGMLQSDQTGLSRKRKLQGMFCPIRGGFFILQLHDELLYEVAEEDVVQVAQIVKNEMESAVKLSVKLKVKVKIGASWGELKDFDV
# Read-out: enzyme activity
# Action: inhibitor
# Concentration: 77 µM
SMILES,remaining activity
C[C@]12CC[C@H]3C(=CCc4cc(O)ccc43)[C@@H]1CCC2=O,102%
Clc1ccccc1C(c1ccccc1)(c1ccccc1)n1ccnc1,101%
Cc1c(F)cc(C(=O)NC2CC2)cc1-c1ccc(C(=O)NCC(C)(C)C)cn1,103%
COc1cc2ncnc(Nc3ccc(Oc4ccccc4)cc3)c2cc1OC,104%
CC(C)NC[C@@H](O)COc1cccc2ccccc12,104%
CNCC[C@H](Oc1ccc(C(F)(F)F)cc1)c1ccccc1,93.5%

# Block 5
# SMILES: CC(=O)N1CCN(c2nc(OC[C@@H]3CCCN3C)nc3c2CCN(c2cccc4cccc(Cl)c24)C3)C[C@@H]1CC#N
# Read-out: binding
# Action: competitor
# Technique: NanoBRET
# Cells: HEK293
# KRAS Q61L: GTPase KRas (KRAS, Homo sapiens, UniProt P01116, Q61L)
target,setting,normalized BRET
KRAS Q61L,1.24 µM,47.4% and 44.4% and 55.5%
KRAS Q61L,45.7 nM,88.2% and 90.2% and 95.6%
KRAS Q61L,33.3 µM,13.7% and 13.4% and 6.54%
"GTPase KRas (KRAS, Homo sapiens, UniProt P01116, G12D)",1.69 nM,95.1% and 103% and 95%

# For quick reference, copied from above (block 2):
Structure (SMILES),inhibition
CO[C@H]1CC[C@H](CNc2ccc(S(=O)(=O)NC(=O)c3ccc(N4CCN(CC5=C(c6ccc(Cl)cc6)CC(C)(C)CC5)CC4)cc3Oc3cnc4[nH]ccc4c3)cc2[N+](=O)[O-])CC1,-7.27%
CC(=O)N1CCC(c2ccc(C(=O)NC3=NCCN3)cc2C(F)(F)F)CC1,-15.7%
CC(C)(O)c1cncc(-c2nc3ccc(F)cc3n2C2CC2)c1,1.22%
C[C@@H]1CN(c2cc(-c3n[nH]c4ccc(OC5(C)CC5)cc34)ncn2)C[C@H](C)O1,4.44%
C[C@H](c1ccc(F)cc1)N(Cc1cccc(C(=O)O)c1)C(=O)c1cnc2ccccc2c1,-16.8%
CS(=O)(=O)NCC[C@H](NC(=O)c1cncc2c1cnn2-c1ccc(F)cc1)c1ccnc(S(C)(=O)=O)c1,13.3%
